Measured values gathered from unrelated publications.
Each numbered part is a random draw from the data of one study; scales do not carry over between parts.
UniProt P25098, sequence (whole entry, looked up): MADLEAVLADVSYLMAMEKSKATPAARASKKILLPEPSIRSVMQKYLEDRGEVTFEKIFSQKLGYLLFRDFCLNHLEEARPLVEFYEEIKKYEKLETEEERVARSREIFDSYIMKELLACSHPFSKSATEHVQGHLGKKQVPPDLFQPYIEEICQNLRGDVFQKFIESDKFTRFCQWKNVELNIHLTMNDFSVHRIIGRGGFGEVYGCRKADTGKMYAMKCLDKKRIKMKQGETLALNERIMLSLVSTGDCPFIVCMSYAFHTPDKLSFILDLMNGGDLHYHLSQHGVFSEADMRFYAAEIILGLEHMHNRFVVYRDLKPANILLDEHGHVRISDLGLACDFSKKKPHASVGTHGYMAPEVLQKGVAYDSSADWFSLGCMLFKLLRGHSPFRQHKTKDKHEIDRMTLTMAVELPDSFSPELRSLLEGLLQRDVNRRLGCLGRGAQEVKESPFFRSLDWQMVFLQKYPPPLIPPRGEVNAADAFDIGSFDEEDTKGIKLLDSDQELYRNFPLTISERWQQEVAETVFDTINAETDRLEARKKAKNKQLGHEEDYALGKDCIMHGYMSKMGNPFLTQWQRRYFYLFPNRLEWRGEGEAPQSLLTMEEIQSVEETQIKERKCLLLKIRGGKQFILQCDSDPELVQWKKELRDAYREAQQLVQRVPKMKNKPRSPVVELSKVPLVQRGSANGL
UniProt P42336, sequence (whole entry, unmodified, looked up): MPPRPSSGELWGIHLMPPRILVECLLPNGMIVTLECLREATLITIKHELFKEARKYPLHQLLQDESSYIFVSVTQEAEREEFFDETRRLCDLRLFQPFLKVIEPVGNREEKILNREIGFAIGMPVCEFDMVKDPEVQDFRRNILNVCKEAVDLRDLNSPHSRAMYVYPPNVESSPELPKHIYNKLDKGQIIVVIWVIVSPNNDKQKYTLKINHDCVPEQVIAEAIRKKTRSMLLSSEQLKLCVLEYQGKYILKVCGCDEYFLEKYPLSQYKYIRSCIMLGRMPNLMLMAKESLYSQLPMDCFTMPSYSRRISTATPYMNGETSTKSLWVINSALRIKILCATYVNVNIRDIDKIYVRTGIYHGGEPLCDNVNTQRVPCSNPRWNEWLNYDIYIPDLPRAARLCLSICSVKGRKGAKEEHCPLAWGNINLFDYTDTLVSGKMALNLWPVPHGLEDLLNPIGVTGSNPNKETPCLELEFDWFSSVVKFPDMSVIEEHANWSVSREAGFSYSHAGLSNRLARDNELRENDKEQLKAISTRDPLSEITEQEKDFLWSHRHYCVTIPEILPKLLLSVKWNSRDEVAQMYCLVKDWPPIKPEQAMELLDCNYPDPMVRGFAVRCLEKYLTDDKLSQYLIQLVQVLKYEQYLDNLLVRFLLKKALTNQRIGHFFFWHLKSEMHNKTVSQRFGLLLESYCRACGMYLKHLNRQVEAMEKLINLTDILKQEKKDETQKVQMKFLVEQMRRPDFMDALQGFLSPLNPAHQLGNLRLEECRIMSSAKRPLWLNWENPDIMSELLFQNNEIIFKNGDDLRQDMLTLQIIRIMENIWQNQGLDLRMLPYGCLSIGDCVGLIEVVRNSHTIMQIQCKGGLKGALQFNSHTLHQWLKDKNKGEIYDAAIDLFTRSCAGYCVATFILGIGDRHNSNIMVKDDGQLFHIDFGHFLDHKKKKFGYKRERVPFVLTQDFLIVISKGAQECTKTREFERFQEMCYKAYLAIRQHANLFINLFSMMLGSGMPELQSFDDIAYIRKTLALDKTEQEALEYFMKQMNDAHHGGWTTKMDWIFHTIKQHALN
UniProt P68400, sequence (whole entry, looked up): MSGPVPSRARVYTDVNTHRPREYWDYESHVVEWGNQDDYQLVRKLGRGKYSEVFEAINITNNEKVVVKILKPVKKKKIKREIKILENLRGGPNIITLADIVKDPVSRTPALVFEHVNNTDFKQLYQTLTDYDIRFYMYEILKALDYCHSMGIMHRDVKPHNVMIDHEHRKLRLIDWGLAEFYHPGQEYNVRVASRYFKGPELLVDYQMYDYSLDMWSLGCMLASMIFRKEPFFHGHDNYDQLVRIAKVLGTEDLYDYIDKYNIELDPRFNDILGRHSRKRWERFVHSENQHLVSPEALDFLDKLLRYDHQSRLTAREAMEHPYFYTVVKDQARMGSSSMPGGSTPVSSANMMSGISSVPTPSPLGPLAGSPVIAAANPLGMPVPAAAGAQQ

Set 1
Target: Calcium/calmodulin-dependent protein kinase type II subunit alpha (CAMK2A, Homo sapiens, UniProt Q9UQM7)
UniProt Q9UQM7, sequence (whole entry, looked up): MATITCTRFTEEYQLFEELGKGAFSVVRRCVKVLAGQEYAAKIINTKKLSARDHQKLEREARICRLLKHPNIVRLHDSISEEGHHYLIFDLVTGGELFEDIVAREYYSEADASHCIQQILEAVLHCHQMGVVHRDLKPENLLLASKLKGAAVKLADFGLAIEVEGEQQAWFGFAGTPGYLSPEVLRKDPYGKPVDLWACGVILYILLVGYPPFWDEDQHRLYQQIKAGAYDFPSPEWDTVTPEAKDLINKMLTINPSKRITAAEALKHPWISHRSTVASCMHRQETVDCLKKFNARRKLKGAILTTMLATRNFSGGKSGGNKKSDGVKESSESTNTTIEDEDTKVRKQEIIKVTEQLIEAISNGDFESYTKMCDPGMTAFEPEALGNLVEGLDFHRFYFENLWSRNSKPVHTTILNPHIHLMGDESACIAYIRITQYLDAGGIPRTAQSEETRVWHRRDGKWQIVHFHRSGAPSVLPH
Observed: enzyme activity
Action: inhibitor
Concentration: 10 µM
SMILES	inhibition [%]
CC(C)(C)OC(=O)N[C@H]1CCCCC/C=C\[C@@H]2C[C@@]2(C(=O)NS(=O)(=O)C2CC2)NC(=O)[C@@H]2C[C@@H](OC(=O)N3Cc4cccc(F)c4C3)CN2C1=O	-1
O=C(O)C(O)Cc1ccc(O)cc1 (stereo not shown)	44
O=C(O)C/C=C/CC(=O)O	-27

Set 2
SMILES: CC(C)(O)c1cncc(-c2nc3ccc(F)cc3n2C2CC2)c1
Observed: cell-free assay
Method: competition with immobilised ligand
Concentration: 1 µM
target	remaining binding [%]
CSNK2A1 (Homo sapiens, UniProt P68400)	100
PIK3CA (Homo sapiens, UniProt P42336, E545A)	90
GRK2 (Homo sapiens, UniProt P25098)	100
Tyrosine-protein kinase ABL1, non-phosphorylated (ABL1, Homo sapiens, UniProt P00519, T315I)	100

Set 3
Target: Diamine acetyltransferase 1 (Homo sapiens, UniProt P21673)
Action: inhibitor
Concentration: 10 µM
Relative to: control
Target sequence (P21673 1-171): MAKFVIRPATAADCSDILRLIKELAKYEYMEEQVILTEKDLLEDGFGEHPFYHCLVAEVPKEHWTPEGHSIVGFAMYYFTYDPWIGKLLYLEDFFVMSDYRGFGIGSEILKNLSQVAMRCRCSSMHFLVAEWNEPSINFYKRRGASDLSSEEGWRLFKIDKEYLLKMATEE
SMILES	remaining activity
Cn1c(=O)c2c(c3ccccc31)OC(C)(C)C=C2	101%
CCCCCC/C=C/CCCCCCCC(=O)O	92.9%
NC(=O)NCCC[C@H](N)C(=O)O	104%
CCCCCCCCCCC/C=C\CCCCC(=O)O	105%
CCCCCCCCCCC(=O)O	114%

Set 4
Cell line: HaCaT
Concentration: 100 µM
Time: 36 h
Compound	viability
Cc1ccc(O)cc1	94.9%
O=c1c(-c2ccc(O)cc2)coc2c([C@@H]3O[C@H](CO)[C@@H](O)[C@H](O)[C@H]3O)c(O)ccc12	89.8%
CC1(C)[C@@H](OC(=O)CCC(=O)O)CC[C@]2(C)[C@H]3C(=O)C=C4[C@@H]5C[C@@](C)(C(=O)O)CC[C@]5(C)CC[C@@]4(C)[C@]3(C)CC[C@@H]12	17.6%
O=c1ccc2cc3ccoc3cc2o1	68.6%
C[C@@H]1CN(c2c(F)c(N)c3c(=O)c(C(=O)O)cn(C4CC4)c3c2F)C[C@H](C)N1	86.6%
Cc1cccc(C)c1NC(=O)c1ccccc1C(=O)O	98.1%

Set 5
Target: Testis-specific serine/threonine-protein kinase 1 (TSSK1B, Homo sapiens, UniProt Q9BXA7)
Observed: enzyme activity
Action: inhibitor
Concentration: 0.5 µM
Relative to: control
Target sequence (Q9BXA7 1-367): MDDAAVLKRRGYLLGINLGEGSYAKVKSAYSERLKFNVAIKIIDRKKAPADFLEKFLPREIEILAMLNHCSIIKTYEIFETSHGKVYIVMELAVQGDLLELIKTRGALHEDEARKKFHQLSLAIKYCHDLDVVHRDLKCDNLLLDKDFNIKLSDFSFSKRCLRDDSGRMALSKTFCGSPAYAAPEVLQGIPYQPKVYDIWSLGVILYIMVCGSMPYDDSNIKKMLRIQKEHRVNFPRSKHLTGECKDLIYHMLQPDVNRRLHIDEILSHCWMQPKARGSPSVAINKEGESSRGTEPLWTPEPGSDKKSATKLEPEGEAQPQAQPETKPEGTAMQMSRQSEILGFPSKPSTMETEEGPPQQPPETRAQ
Compound	remaining activity [%]
Nc1ccc2ncnc(NCCc3ccc(Oc4ccccc4)cc3)c2c1	100
CO[C@H]1C[C@@H]2CC[C@@H](C)[C@@](O)(O2)C(=O)C(=O)N2CCCC[C@H]2C(=O)O[C@H]([C@H](C)C[C@@H]2CC[C@@H](O)[C@H](OC)C2)CC(=O)[C@H](C)/C=C(\C)[C@@H](O)[C@@H](OC)C(=O)[C@H](C)C[C@H](C)/C=C/C=C/C=C/1C	103
COc1ccc(C(=O)Nc2sc3c(c2C(N)=O)CCCC3)cc1OC	115
C#Cc1cccc(Nc2ncnc3cc(OCCOC)c(OCCOC)cc23)c1	78.9
Oc1ccc(-c2nc(-c3ccncc3)c(-c3ccc(F)cc3)[nH]2)cc1	104
Nc1[nH]nc2nc3ccccc3nc12	95.4
COc1cc2ncnc(Nc3ccc(F)c(Cl)c3)c2cc1OCCCN1CCOCC1	90
CNC(=O)c1cc(Oc2ccc(NC(=O)Nc3ccc(Cl)c(C(F)(F)F)c3)cc2)ccn1	98.7
Cc1cccc(-c2[nH]c(C(C)(C)C)nc2-c2ccc3c(c2)OCO3)n1	103
OCC(O)CCON=C1C(c2c(O)[nH]c3ccccc23)=Nc2ccccc21 (stereo not shown)	76.6
O=C1NC(=O)C(c2cn(CCCn3ccnc3)c3ccccc23)=C1Nc1ccccc1	102
Cc1nc(-c2ccccc2)c(-c2ccncc2)o1	108
CN(C)c1ccc(C=C2C(=O)Nc3ccccc32)cc1	102
O=C(O)c1ccc2c3c1cccc3c(=O)n1c3ccccc3nc21	112
N#CC(C#N)=C(N)/C(C#N)=C/c1ccc(O)cc1	111
O=C(CCCc1ccc(-c2ccccc2F)cc1)Nc1ccc(O)cc1	107

Some of these lines once more (set 4):
Compound	viability
Cc1ccc(O)cc1	94.9%
O=c1c(-c2ccc(O)cc2)coc2c([C@@H]3O[C@H](CO)[C@@H](O)[C@H](O)[C@H]3O)c(O)ccc12	89.8%
CC1(C)[C@@H](OC(=O)CCC(=O)O)CC[C@]2(C)[C@H]3C(=O)C=C4[C@@H]5C[C@@](C)(C(=O)O)CC[C@]5(C)CC[C@@]4(C)[C@]3(C)CC[C@@H]12	17.6%
O=c1ccc2cc3ccoc3cc2o1	68.6%
C[C@@H]1CN(c2c(F)c(N)c3c(=O)c(C(=O)O)cn(C4CC4)c3c2F)C[C@H](C)N1	86.6%
